Measured values of several laboratories.
Lines come from different studies, so protocols differ. ± marks the error that the study gave.
Cell line: MCF7

CC(C)(C)c1cc2c(O)c(c1)Cc1cc(C(C)(C)C)cc(c1OCC(=O)Nc1cncc3ccccc13)Cc1cc(C(C)(C)C)cc(c1O)Cc1cc(C(C)(C)C)cc(c1OCC(=O)Nc1cncc3ccccc13)COC2 — apoptotic cells (annexin V-FITC/PI flow cytometry; 20 µM, 24 h): 57.7 ± 0.68%
CC(=NNC(=S)NN=C(C(=NO)c1ccccc1)c1ccccc1)c1ccccc1 — relative protein level (Western blot, measured: iNOS; IC50 concentration, 24 h; baseline: untreated): 0.76 ± 0.07
NS(=O)(=O)c1ccc(/N=N/c2ccc(O)c(/C=N/c3cccc(O)c3)c2)cc1 — selectivity index (MTT; 48 h; baseline: MCF10A IC50 over MCF7 IC50): 0.82
N=C(N)NCCC[C@H](NC(=O)[C@H](Cc1c[nH]c2ccccc12)NC(=O)[C@H](CCC(N)=O)NC(=O)[C@H](Cc1c[nH]c2ccccc12)NC(=O)[C@H](CCCNC(=N)N)NC(=O)[C@H](Cc1c[nH]c2ccccc12)NC(=O)[C@H](CCC(N)=O)NC(=O)[C@H](Cc1c[nH]c2ccccc12)NC(=O)[C@@H](N)CCCNC(=N)N)C(N)=O — wound area reduction (wound-healing; concentration not given, 48 h): 3%
O=C1c2ccccc2C(=O)c2c1ccc1c2C(C(=O)Nc2ccc(Cl)cc2)C(=O)C1c1ccccc1 (stereo not drawn) — TGI (cell growth or viability): 67.2 µM
CCCc1cc(O)nc(SCCOC(=O)[C@]2(C)CCC[C@]3(C)c4ccc(C(C)C)cc4CCC23)n1 (stereo partly drawn) — apoptotic cells (annexin V-FITC/PI flow cytometry; 15 µM, 48 h): 43.3%
CCC[C@@H]1O[C@@H](Oc2c(-c3ccc(O)cc3)oc3cc(O)cc(O)c3c2=O)[C@H](O)[C@H](OC(C)=O)[C@H]1NC(C)=O — RSK substrate phosphorylation (inhibitor, immunoblot, measured: phospho-eEF2, phospho-S6, cyclin D1; 100 µM, added: PMA): no effect
COc1ccc(/C=C/C(=O)c2ccc(NC(=O)c3ccccc3CN3C(=O)c4ccccc4C3=O)cc2)c(OC)c1 — necrotic cells (annexin V/PI staining; IC50, 24 h; baseline: untreated): 2.76 fold
COC(=O)[C@H](CSSC[C@H](NC(=O)[C@H](Cc1ccccc1)NC(=O)[C@H](Cc1ccccc1)NC(=O)OC(C)(C)C)C(=O)OC)NC(=O)[C@H](Cc1ccccc1)NC(=O)[C@H](Cc1ccccc1)NC(=O)OC(C)(C)C — protein level (western blot, measured: DNA damage, apoptosis, autophagy proteins; concentration not given): no effect
CC(=O)[O][Pt]([Cl])([Cl])[O]C(C)=O.N.N — DNA-bound platinum (GF-AAS; 5 µM, 24 h; baseline: cellular platinum): 5%
CC(=C(c1ccc(Cl)cc1)c1ccc(OCCN2CCOCC2)cc1)c1ccc(Cl)cc1 — inhibition (cell growth or viability; 10 µM): 19.3%
O=C(O)C=Cc1ccc(C(=C2C3CCCC2CCC3)c2ccc(O)cc2)cc1 — pS2 mRNA level (antagonist, real-time PCR; 1 µM, added: 1 nM estradiol): inhibited
Cc1ccc2oc(=O)c(-c3nc4cnccc4[nH]3)cc2c1 — EC50 (cell growth or viability; 72 h): 9.53 µM
CC(=O)OC[C@H]1O[C@@H](Sc2sc(C(=O)c3ccc(Br)cc3)c(N)c2-c2nc3ccccc3s2)[C@H](OC(C)=O)[C@@H](OC(C)=O)[C@@H]1OC(C)=O — growth (SRB; 10 µM, 48 h; baseline: untreated): 73.7%
COc1ccc(NC(=O)CCc2nc3cc(Cl)ccc3[nH]c2=O)cc1 — pre-G1 phase cells (flow cytometry; concentration not given; baseline: untreated control): ~1.38 fold
COc1cccc2c1C(=O)c1c(O)c3c(c(O)c1C2=O)C[C@@](O)(C(=O)CO)C[C@@H]3O[C@H]1C[C@H](N)[C@H](O)[C@H](C)O1 — intracellular ROS level (DCFDA fluorescence; concentration not given, 4 h; baseline: DMSO): increased
CCC(=C(c1ccc(Cl)cc1)c1ccc(OCCCN(C)C)cc1)c1ccc(Cl)cc1 — inhibition (cell growth or viability; 10 µM): 60.7%
OC(c1cccc(Oc2ccccc2)c1)c1c[nH]c2ncc(C(F)(F)F)cc12 (stereo not drawn) — inhibition (cell growth or viability; 10 µM, 72 h): 26%

Excerpt of the above:
CC(C)(C)c1cc2c(O)c(c1)Cc1cc(C(C)(C)C)cc(c1OCC(=O)Nc1cncc3ccccc13)Cc1cc(C(C)(C)C)cc(c1O)Cc1cc(C(C)(C)C)cc(c1OCC(=O)Nc1cncc3ccccc13)COC2 — apoptotic cells (annexin V-FITC/PI flow cytometry; 20 µM, 24 h): 57.7 ± 0.68%
CC(=NNC(=S)NN=C(C(=NO)c1ccccc1)c1ccccc1)c1ccccc1 — relative protein level (Western blot, measured: iNOS; IC50 concentration, 24 h; baseline: untreated): 0.76 ± 0.07
